Experimental data pooled from the literature.
Every numbered part comes from another study and shows a few of its results, in no order. Values joined by “and” are separate records of one study, mostly repeats; a detail may differ.
UniProt Q9BYP7, sequence (whole entry, looked up): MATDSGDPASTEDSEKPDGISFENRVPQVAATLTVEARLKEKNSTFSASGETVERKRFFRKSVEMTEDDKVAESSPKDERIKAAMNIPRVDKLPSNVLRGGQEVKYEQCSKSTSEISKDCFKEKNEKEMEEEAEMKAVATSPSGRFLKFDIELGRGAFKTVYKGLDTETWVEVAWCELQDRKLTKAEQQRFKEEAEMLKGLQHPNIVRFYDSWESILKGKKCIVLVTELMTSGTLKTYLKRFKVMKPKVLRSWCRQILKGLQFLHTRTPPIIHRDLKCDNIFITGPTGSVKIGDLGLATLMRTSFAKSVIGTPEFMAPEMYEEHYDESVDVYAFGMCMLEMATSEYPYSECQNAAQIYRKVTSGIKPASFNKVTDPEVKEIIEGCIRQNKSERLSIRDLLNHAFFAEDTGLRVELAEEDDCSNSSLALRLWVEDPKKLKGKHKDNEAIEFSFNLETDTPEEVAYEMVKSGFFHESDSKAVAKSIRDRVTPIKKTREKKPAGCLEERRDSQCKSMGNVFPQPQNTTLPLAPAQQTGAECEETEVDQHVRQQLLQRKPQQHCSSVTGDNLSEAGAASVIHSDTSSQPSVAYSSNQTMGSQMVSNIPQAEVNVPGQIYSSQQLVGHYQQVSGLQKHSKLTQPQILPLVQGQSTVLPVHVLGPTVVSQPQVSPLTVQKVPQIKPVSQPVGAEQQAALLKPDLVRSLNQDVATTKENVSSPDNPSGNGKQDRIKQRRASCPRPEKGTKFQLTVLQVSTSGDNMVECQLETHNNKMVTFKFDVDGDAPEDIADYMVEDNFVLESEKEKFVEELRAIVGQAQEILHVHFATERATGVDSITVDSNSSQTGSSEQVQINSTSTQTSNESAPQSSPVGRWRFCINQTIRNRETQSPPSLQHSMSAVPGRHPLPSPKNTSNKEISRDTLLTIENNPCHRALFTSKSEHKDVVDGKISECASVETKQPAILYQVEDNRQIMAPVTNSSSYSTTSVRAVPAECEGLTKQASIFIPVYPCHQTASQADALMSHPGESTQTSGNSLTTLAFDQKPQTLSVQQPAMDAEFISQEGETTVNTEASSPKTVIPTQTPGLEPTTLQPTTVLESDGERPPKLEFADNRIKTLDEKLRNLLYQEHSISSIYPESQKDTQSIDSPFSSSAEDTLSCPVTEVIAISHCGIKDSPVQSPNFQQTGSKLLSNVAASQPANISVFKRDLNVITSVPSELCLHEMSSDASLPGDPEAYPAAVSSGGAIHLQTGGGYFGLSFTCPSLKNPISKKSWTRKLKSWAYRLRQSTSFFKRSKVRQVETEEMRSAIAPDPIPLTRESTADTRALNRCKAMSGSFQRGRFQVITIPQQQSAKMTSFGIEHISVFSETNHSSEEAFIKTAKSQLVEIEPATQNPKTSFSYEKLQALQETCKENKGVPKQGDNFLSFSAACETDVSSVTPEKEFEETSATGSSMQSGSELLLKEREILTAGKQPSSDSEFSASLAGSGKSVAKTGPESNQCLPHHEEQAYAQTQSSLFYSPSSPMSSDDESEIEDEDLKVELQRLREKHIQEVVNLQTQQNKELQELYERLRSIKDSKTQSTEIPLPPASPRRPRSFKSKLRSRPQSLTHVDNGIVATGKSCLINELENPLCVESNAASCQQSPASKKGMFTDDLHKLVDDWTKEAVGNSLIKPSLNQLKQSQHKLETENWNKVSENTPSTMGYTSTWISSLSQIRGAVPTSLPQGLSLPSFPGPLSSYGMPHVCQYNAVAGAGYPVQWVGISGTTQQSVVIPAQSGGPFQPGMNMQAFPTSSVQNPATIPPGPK
UniProt Q6ZN16, sequence (whole entry, looked up): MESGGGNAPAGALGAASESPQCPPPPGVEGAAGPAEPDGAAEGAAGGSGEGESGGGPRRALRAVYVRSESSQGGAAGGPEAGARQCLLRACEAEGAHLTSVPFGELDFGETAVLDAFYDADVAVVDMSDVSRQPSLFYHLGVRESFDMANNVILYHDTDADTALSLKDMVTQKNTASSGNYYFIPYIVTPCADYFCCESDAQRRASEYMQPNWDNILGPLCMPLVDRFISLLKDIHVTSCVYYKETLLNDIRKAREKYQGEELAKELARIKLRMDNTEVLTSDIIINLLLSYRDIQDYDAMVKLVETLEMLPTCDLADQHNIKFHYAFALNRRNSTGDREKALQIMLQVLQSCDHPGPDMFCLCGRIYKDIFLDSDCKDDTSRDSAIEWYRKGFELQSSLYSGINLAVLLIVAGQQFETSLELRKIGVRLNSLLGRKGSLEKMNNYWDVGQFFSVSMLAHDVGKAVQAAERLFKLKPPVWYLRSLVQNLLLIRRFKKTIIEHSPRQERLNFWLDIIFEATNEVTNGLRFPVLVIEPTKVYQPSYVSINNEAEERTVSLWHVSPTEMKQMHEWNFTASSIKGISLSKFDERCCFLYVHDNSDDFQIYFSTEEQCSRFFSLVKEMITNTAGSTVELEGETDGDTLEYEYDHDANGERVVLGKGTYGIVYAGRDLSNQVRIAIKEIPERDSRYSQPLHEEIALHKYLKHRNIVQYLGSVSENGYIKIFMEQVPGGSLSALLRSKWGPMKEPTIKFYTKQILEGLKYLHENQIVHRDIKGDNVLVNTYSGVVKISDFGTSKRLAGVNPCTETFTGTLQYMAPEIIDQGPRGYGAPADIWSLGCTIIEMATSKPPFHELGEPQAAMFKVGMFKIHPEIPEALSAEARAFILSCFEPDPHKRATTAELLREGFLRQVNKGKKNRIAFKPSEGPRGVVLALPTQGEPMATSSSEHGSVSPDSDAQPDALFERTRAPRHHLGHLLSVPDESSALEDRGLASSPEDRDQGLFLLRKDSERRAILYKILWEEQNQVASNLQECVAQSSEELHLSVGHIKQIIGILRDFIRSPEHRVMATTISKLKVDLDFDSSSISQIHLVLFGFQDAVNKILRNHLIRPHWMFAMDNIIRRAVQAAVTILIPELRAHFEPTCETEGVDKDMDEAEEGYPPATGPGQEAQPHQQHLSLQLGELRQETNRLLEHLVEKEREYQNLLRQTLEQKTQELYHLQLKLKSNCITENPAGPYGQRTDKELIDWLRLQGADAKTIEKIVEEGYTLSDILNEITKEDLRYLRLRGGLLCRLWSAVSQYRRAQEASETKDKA
UniProt Q15375, sequence (whole entry, looked up): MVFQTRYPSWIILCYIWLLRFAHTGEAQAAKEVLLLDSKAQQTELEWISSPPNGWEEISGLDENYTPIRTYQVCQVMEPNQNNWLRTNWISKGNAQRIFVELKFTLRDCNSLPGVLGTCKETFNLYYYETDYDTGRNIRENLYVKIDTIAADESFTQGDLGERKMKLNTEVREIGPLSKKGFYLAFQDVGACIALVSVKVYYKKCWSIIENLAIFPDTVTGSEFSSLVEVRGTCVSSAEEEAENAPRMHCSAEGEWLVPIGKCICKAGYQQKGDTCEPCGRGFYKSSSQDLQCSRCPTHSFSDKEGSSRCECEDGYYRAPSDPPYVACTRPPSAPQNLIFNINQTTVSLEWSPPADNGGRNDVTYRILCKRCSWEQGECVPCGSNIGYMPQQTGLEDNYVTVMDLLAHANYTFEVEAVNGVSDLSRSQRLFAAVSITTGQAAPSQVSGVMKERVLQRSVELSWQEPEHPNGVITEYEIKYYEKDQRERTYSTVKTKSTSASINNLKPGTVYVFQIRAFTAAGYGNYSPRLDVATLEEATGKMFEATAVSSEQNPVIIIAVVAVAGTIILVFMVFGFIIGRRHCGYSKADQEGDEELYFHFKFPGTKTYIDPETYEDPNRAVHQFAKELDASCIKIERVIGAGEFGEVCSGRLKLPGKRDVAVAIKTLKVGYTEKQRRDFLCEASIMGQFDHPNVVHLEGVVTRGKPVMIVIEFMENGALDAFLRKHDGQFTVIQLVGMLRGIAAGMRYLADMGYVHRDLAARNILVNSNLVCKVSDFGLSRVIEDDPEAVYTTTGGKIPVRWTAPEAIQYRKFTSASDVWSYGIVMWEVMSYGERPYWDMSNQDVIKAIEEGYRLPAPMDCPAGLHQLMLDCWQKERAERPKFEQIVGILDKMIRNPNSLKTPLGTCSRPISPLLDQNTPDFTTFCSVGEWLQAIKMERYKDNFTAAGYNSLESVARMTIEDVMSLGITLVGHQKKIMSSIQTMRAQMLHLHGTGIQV
UniProt P33981, sequence (whole entry, looked up): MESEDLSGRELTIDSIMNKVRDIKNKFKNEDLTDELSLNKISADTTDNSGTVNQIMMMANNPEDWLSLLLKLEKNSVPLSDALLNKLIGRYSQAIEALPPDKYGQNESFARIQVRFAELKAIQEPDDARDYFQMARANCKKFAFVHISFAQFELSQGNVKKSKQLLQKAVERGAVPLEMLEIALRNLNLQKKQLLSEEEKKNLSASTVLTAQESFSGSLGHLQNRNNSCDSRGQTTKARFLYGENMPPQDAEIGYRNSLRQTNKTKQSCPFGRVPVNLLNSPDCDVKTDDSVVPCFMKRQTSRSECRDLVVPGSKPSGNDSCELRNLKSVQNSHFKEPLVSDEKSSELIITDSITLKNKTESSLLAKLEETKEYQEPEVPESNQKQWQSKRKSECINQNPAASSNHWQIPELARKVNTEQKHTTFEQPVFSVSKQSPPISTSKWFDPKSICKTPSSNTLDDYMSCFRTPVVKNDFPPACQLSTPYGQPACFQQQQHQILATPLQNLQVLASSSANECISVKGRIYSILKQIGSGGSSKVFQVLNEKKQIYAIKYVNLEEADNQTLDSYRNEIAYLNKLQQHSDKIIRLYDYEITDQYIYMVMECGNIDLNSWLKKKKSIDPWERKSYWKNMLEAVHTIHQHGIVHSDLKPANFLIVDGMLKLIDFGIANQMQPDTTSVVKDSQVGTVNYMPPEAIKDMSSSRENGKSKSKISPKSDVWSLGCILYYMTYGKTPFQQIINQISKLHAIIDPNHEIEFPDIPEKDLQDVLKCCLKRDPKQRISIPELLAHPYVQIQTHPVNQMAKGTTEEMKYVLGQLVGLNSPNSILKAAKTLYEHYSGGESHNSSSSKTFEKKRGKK

Series 1 — cell line: mouse MPNST tumor cells; technique: high-content immunofluorescence imaging; refers to: nuclear SOX9; tested at: 10 µM; time: 12 h; setting: mean of 2 replicates; baseline: DMSO control; reading: higher = more nuclear SOX9
| Structure (SMILES) | nuclear SOX9 intensity |
| --- | --- |
| Nc1c(Br)cc(Br)cc1CN[C@H]1CC[C@H](O)CC1 | 106 % of DMSO and 124 % of DMSO |
| N=C(N)Nc1ccc(C(=O)Oc2ccc3cc(C(=N)N)ccc3c2)cc1 | 95.5 % of DMSO |
| Cc1cc(C)c(S(=O)(=O)N(Cc2ccc(-c3cccc(S(C)(=O)=O)c3)cc2)Cc2ccc(C(F)(F)F)o2)c(C)c1 | 88.7 % of DMSO |

Series 2 — host: mouse; medium: microsomes or S9; tested at: 2 µM; time: 0.5 h
| SMILES | remaining compound |
| --- | --- |
| CCc1ccc(S(=O)(=O)C2CS(=O)(=O)CC2NCc2ccccc2C)cc1 (stereo not drawn) | 0.0254% |
| Cc1ccc(S(=O)(=O)N2c3c(c4ccccc4n3Cc3ccccc3)CC=CC2c2ccccc2)cc1 (stereo not drawn) | 34.7% |
| NS(=O)(=O)c1ccc(CCNCc2cccc(Oc3nnnn3-c3ccccc3)c2)cc1 | 27% |
| CCCn1c(=O)oc2cc(NC(=O)Nc3ccccc3OCC)ccc21 | 7.06% |
| CC(CC(=O)c1ccccc1)n1nnc(-c2ccccc2)n1 (stereo not drawn) | 5.6% |

Series 3 — cell line: HaCaT; tested at: 100 µM; time: 36 h
| SMILES | viability [%] |
| --- | --- |
| CC(C)N1CCN(c2ccc(OC[C@H]3CO[C@](Cn4cncn4)(c4ccc(Cl)cc4Cl)O3)cc2)CC1 (racemic) | 4.9 |
| O=C1C(CC[S+]([O-])c2ccccc2)C(=O)N(c2ccccc2)N1c1ccccc1 (stereo not drawn) | 87.8 |
| C[C@H](O)C(=O)Nc1c(I)c(C(=O)NC(CO)CO)c(I)c(C(=O)NC(CO)CO)c1I | 99.4 |
| CN(CCOc1ccc(CC2SC(=O)NC2=O)cc1)c1ccccn1 (stereo not drawn) | 49.8 |
| CC(NCCC(c1ccccc1)c1ccccc1)c1ccccc1 (stereo not drawn) | 4.62 |
| COC(=O)c1ccc2c(c1)NC(=O)/C2=C(\Nc1ccc(N(C)C(=O)CN2CCN(C)CC2)cc1)c1ccccc1 | 112 |
| O=C(O)Cc1ccc(-c2ccccc2)cc1 | 99.3 |
| C[N+]1(C)[C@@H]2C[C@@H](OC(=O)C(O)(c3cccs3)c3cccs3)C[C@H]1[C@@H]1O[C@@H]12 | 117 |
| COc1cc2ccc(=O)oc2cc1O | 96.3 |

Series 4 — observed: cell-free assay; technique: competition with immobilised ligand; tested at: 1 µM
SMILES: COc1cccc(CNC(=O)c2nc3scc(COCc4ccc(C(=O)O)cc4)c3c(=O)[nH]2)c1
| target | remaining binding |
| --- | --- |
| STK10 (Homo sapiens, UniProt O94804) | 67.8% |
| SBK1 (Homo sapiens, UniProt Q52WX2) | 53.7% |
| CDK11A (Homo sapiens, UniProt Q9UQ88) | 99.2% |
| EPHA8 (Homo sapiens, UniProt P29322) | 82.5% |
| WNK3 (Homo sapiens, UniProt Q9BYP7) | 83.6% |
| Ribosomal protein S6 kinase alpha-6, C-terminal kinase domain (RPS6KA6, Homo sapiens, UniProt Q9UK32) | 100% |
| EPHA7 (Homo sapiens, UniProt Q15375) | 86.5% |
| BMPR1B (Homo sapiens, UniProt O00238) | 64.5% |
| MET (Homo sapiens, UniProt P08581, Y1235D) | 100% |
| SRPK1 (Homo sapiens, UniProt Q96SB4) | 100% |
| TTK (Homo sapiens, UniProt P33981) | 92.8% |
| MAP3K15 (Homo sapiens, UniProt Q6ZN16) | 100% |
| Receptor-type tyrosine-protein kinase FLT3, autoinhibited (FLT3, Homo sapiens, UniProt P36888) | 62.5% |
| SIK2 (Homo sapiens, UniProt Q9H0K1) | 86.4% |
| Non-receptor tyrosine-protein kinase TYK2, JH1 (TYK2, Homo sapiens, UniProt P29597) | 95% |
| EGFR (Homo sapiens, UniProt P00533, del746-750) | 80.4% |

For quick reference, copied from above (series 4):
| target | remaining binding |
| --- | --- |
| EPHA7 (Homo sapiens, UniProt Q15375) | 86.5% |
| BMPR1B (Homo sapiens, UniProt O00238) | 64.5% |
| MET (Homo sapiens, UniProt P08581, Y1235D) | 100% |
| SRPK1 (Homo sapiens, UniProt Q96SB4) | 100% |
